# Assay results pooled from the literature.
# Numbered parts are unrelated; each lists some results of a single study.

# Block 1
# Target: Sal-like protein 4, full length isoform A (SALL4, Homo sapiens, UniProt Q9UJQ4, residues 1-1053)
# Sequence of UniProt Q9UJQ4 (whole entry, looked up): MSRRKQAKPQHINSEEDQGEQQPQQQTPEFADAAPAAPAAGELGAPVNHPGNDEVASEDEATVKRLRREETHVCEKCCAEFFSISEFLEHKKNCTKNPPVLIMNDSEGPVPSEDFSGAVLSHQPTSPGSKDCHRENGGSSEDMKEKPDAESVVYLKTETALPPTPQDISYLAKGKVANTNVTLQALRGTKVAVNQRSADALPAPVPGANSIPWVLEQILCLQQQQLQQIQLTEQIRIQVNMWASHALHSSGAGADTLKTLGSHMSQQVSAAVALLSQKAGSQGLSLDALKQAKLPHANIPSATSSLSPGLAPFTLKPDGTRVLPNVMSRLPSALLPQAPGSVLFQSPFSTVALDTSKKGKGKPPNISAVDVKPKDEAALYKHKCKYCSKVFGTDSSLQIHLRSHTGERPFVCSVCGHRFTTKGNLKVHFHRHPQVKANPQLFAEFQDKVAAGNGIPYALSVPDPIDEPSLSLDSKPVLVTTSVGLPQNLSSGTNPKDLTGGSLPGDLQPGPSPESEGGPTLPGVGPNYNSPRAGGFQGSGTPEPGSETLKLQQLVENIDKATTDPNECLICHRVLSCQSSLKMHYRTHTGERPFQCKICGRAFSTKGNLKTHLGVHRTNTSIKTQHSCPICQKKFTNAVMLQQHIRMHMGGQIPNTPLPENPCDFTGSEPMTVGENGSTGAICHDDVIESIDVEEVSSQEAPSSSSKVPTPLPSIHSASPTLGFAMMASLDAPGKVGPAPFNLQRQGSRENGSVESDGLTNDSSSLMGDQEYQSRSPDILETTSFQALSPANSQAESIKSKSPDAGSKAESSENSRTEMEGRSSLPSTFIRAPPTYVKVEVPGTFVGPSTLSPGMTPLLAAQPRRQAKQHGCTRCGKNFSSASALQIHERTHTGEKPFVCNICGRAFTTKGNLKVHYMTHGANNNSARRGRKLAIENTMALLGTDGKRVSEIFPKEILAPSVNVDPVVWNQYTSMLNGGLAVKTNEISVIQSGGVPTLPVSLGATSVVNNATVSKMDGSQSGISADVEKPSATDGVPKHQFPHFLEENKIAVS
# Technique: universal PBM
# Form: double-stranded DNA, one strand shown
# Medium: in vitro
# Concentration: 600 nM
# Notes: 8-mer, flanks averaged, mean of replicates
# Reading: higher = stronger binding
Oligonucleotide,E-score
AACGTAAC,0.0502
CTCGCTGC,-0.0612
CCTGACCA,0.0675
AGGTAGAC,-0.133
GATGTAGA,0.131
CATTTAGG,-0.0361
TACTACTA,0.264
GGAACCCA,-0.292
ACTGTTCC,-0.157
CAATCTAA,0.093
GGAGATCA,-0.0685
ATGGCTTA,0.118
CCAAAGCC,-0.183
GCTCGATA,0.00375
AATGACGA,0.205
CAATCAGA,0.0196
CGAACCGC,-0.337
GATAACCA,0.0565
CCGTAACC,-0.125
CACATGGA,-0.0525
CCTGGGAA,-0.224
CGCCATAC,-0.0466
CATAGCTA,0.0699
AGTAGCTG,-0.0548
AATCAAAC,0.149

# Block 2
# Target: PABPC1L2, full length, GST fusion (mouse, UniProt A0ABA7IW68)
# Technique: RNAcompete
# Form: RNA
# Medium: in vitro
# Concentration: 20 nM
# Notes: 7-mer, probes averaged, single round
# Reference: mean of 7-mers
# Reading: higher = stronger binding
# Target sequence (chain): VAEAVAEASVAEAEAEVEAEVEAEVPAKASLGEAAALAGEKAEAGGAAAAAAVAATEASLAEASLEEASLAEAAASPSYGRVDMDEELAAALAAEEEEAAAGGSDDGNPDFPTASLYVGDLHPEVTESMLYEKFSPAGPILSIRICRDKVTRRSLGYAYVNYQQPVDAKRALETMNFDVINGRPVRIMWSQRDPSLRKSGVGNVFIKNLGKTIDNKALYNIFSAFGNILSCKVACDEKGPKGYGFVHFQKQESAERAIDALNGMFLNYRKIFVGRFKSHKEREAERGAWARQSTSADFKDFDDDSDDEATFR
Oligonucleotide,7-mer Z-score
AACCUCA,-0.0899
GCCUCGC,-0.394
UCUCGGA,-0.0772
UGAUUAA,0.0696
GUCAAGA,0.0189
CAGUAAC,-0.0446
CAUAAGG,-0.0264
AUUCACU,-0.157
GCACCAG,-0.103
UAAGAUA,-0.193
UUCCCUG,-0.481
UUCGUCG,-0.51
UACGCCG,-0.342
UGCCAGU,-0.333
UUCGCUG,-0.492
ACCCUGA,-0.175
AACGAGU,-0.0192
CUUCGUC,-0.498
UACCUCA,-0.137

# Block 3
# Target: Prothrombin, mature alpha-thrombin (F2, Homo sapiens, UniProt P00734)
# Technique: aptamer microarray, sandwich
# Form: DNA with 2'F-ANA
# Medium: in vitro
# Concentration: 200 nM
# Notes: whole 15-mer aptamer, many near background
# With: Cy3 exosite-II aptamer, 400 nM
# Reading: higher = stronger binding
# Oligonucleotide: GGTTGGTGTGGTTGG
Modification,mean fluorescence intensity
2'F-ANA at 3 6 7 8 11 12 14,565 a.u.
2'F-ANA at 1 2 5 6 8 10 11 12 13 14,56 a.u.
2'F-ANA at 5 10 14 15,46.7 a.u.
2'F-ANA at 4 10 12,132 a.u.
2'F-ANA at 4 6 7 8 9 12 14,104 a.u.
2'F-ANA at 1 4 7 8 11,139 a.u.
2'F-ANA at 1 3 4 6 11 13 15,121 a.u.
2'F-ANA at 2 3 6 8 9 12 13 14,390 a.u.
2'F-ANA at 1 3 4 5 7 11,51.1 a.u.
2'F-ANA at 1 4 5 11 12 13 14,48 a.u.
2'F-ANA at 2 8 9 10 12 13 15,148 a.u.
2'F-ANA at 2 4 6 7 8 13,240 a.u.
2'F-ANA at 3 4 5 7 8 10 12 14,48.6 a.u.
2'F-ANA at 6 8 10 12,250 a.u.
2'F-ANA at 1 2 3 4 9 10 15,73.3 a.u.
2'F-ANA at 1 2 5 6 7 8 11 13 14,118 a.u.
2'F-ANA at 11 12 14 15,254 a.u.
2'F-ANA at 4 6 11 12 13 15,273 a.u.
2'F-ANA at 1 4 5 6 9 13 15,54.5 a.u.
2'F-ANA at 1 6 7 8 9 10 11 12 13,63.9 a.u.
2'F-ANA at 3 6 8 10 12 15,580 a.u.
2'F-ANA at 1 2 4 5 6 7 10 12 13 15,69.1 a.u.
2'F-ANA at 1 2 4 5 10 12 13 14 15,46.3 a.u.
2'F-ANA at 2 3 4 6 7 8 9 10 12 15,260 a.u.
2'F-ANA at 1 2 3 4 6 8 9 10 12 13,57.6 a.u.

# Block 4
# Target: RNA binding protein fox-1 homolog 2, RRM domain, GST-SBP tag (RBFOX2, Homo sapiens, UniProt O43251-10, residues 100-194)
# Technique: RNA Bind-n-Seq
# Form: RNA
# Medium: in vitro
# Concentration: 365 nM
# Notes: natural RNA segment, single round, ends assumed
# Reference: no-protein control
# Reading: higher = stronger binding
# Construct (chain): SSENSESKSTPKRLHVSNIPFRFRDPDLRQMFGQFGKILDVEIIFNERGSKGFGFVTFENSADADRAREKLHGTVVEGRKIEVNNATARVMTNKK
Oligonucleotide,RBNS enrichment (R)
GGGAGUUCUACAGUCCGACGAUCGGUUGUGCAAACAUCACGGGGCCCUACCCUGAUCCCCAAGGCCCCACCAUCACUGCCCAAGGGGGUAAAAAAGAGAAAAAGCCCUCAAAAACAGUUCUUACUCCUGUGUUUGGAAUUCUCGGGUGCCAA,0.516
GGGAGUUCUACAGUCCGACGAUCUGAAGGACAGUCCCUCAGCCUUUCCAUUGGUUCCUUUGUGUUCAGUGCACCCAGCCUUUGAACAGAGCCUAGGGUCUGUAUGCCAUGACACUGGAAGUCAUAGAAAUUUCUGGAAUUCUCGGGUGCCAA,0.349
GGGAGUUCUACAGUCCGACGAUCAAACGAAAACCACUUUCCAGUAAUAUAUGGCAUUGCUGUCAACAUUAAGACUGCAGAGAUUUACAGAGCAUCCUUUCAAGAUCGGGGUCCGGAGGAGCAGCUUCGUGCUGUGGAAUUCUCGGGUGCCAA,0.397
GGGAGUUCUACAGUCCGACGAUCCAAAGCCUUUCGAGGUAGGAGAGACCAAGACCAGUGCACAGCUUUUUAACUCUUGUCUUCUGUGAGUUUUCCGUCCUCUGUAGUCACGUGCCUGCACACCGUUCUCUCCAUGGAAUUCUCGGGUGCCAA,0.449
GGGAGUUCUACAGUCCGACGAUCUGGCAAUUGCUUCCUCGAAGACAUGGUGUCACCUUGAAUAGGAAUCUCAGGCAAUCGAGACAGAGAGAGCCAGCAAGGGCUGGUACCUGAGGUCAUAUUUCAGACACCCAUGGAAUUCUCGGGUGCCAA,0.389
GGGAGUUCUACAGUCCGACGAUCCUAAGGAUGAUAUUGGAAUGCACCAGCCCUCACAUGUGUAUGCACAUUUGCCAGAAUAUAAGAGUUUUGUUUUAAAUACAGUCUUGUUAGGAUUUUACGUUAUUGUUAUUUGGAAUUCUCGGGUGCCAA,0.901
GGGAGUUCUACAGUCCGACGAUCAAGGGAGAGCUAGAGCCACUCACUGUCAUUCUGCUCUGACCUUGAAGGGGGCGGUGUUGGCCUGGCUUCUGGAAUGGACUGAGUCCAUCGUGGAAAGGGCUGGGGGCAGGUGGAAUUCUCGGGUGCCAA,0.482
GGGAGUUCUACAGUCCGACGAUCAGUCAGUUAAUAGCAUUGGGACAGUCAUUGUAAUGGUGCUGUUACCAGUCGACACCAUUGUGUUUGACCGCGUUCCUGUCUCCUCAGCCACAUACCCUCAUCUGUGCUGUUGGAAUUCUCGGGUGCCAA,0.283
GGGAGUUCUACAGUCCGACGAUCCUUACACAUUUUAUGUAAACUCUUUAAUGUCUUUAAUUUGGAUUUUUGUUUCUUAGAACUUUAACAUUUAUUUUAAUCCUGAAGACACUUUUUUGAUUGUGUUUCGUAAGUGGAAUUCUCGGGUGCCAA,0.837
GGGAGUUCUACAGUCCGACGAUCCUGCCUCCUUUUAAUUGUAUUCAUUUAGAUUUUGAUUUUCCAUGUUAAGAAGGUGAGGUCCAUGUUGGUGCCCUUCAGAGUAGAGAACCAUGUAAACAUUAGGAAUGAACUGGAAUUCUCGGGUGCCAA,0.624
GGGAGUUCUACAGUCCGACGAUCCUUGGAUCUGGAAAGAUAACUCAACAGUCAAGAGUACUGGUUGUUCUUCCCCAAGGACCAAGGUUCAAUUCCUAGCACCCAUAUGACUGCUCACAGGCACCUGUAACUCCUGGAAUUCUCGGGUGCCAA,1.02
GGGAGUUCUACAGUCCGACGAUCCAGACUCUGUUCCACUAGUGAAUGAACCAUUUUCUAAACGUUUCCCUUUGACUUUUUUAUUUAUUGAAUUUUCUUGGUUUGGAGAUGGCAGUCCCAAACACCAGAGUCUGUGGAAUUCUCGGGUGCCAA,0.838

# Block 5
# Target: Histone acetyltransferase KAT6A, winged helix 2, GST fusion (KAT6A, Homo sapiens, UniProt Q92794, residues 85-181)
# Technique: protein binding microarray
# Form: double-stranded DNA, one strand shown
# Medium: in vitro
# Concentration: not given
# Notes: 8-mer, flanks averaged, mean of 2 arrays, mostly near background
# Reference: not given
# Reading: higher = stronger binding
# Residues (chain): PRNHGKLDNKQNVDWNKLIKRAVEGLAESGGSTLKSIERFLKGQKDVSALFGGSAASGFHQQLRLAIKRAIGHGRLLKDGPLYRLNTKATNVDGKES
Oligonucleotide,E-score
GTGTCTGA,0.063
CAGGCCGG,0.0688
CCCGACTC,0.15
GATCACGC,0.139
AGAGTGGC,-0.0336
AGGTCAGA,-0.104
AACCCAAC,-0.143
ACAAATAC,-0.0276
GACACCAC,-0.0608
GATCGCCC,-0.0482
AGCGATGG,0.00897
CAGATGCC,-0.0799
CCACATCG,-0.17
CAACAATG,0.0132
CAGTTTAC,0.0265
AGTCCAAT,-0.0519

# Excerpt of the above (block 3):
Modification,mean fluorescence intensity
2'F-ANA at 1 3 4 5 7 11,51.1 a.u.
2'F-ANA at 1 4 5 11 12 13 14,48 a.u.
2'F-ANA at 2 8 9 10 12 13 15,148 a.u.
2'F-ANA at 2 4 6 7 8 13,240 a.u.
2'F-ANA at 3 4 5 7 8 10 12 14,48.6 a.u.
2'F-ANA at 6 8 10 12,250 a.u.
2'F-ANA at 1 2 3 4 9 10 15,73.3 a.u.
2'F-ANA at 1 2 5 6 7 8 11 13 14,118 a.u.
2'F-ANA at 11 12 14 15,254 a.u.
2'F-ANA at 4 6 11 12 13 15,273 a.u.
2'F-ANA at 1 4 5 6 9 13 15,54.5 a.u.
